Assay results gathered from unrelated publications.
± marks the error that the study gave.
Cell line: HepG2

Compound	assay	setting	IC50
COc1ccc(CCNc2cc(-c3ccccc3)nc3ncnn23)cc1	cell growth or viability, ATP luminescence	48 h	> 25 µM
CC[C@@]1(O)C(=O)OCc2c1cc1n(c2=O)Cc2cc3cc(OC(=O)CCCC(=O)NCC(=O)N[C@@H](Cc4ccccc4)C(=O)N[C@@H](Cc4ccccc4)C(=O)N[C@@H](Cc4ccc(OP(=O)(O)O)cc4)C(=O)NCCSSCCNC(=O)CCC(=O)N[C@@H](CCC(=O)O)C(=O)N[C@@H](CCCNC(=N)N)C(=O)NCC(=O)N[C@@H](CC(=O)O)C(=O)O)ccc3nc2-1	cell growth or viability, MTT	–	0.08 µM
C=C(CO)[C@H]1Cc2c(ccc3c2O[C@@H]2COc4cc(OC)c(OC)cc4[C@]2(O)C3=O)O1	cell growth or viability, MTT	72 h	32.6 µM
C[C@@H]1O[C@@H](O[C@H]2[C@H](O[C@H]3CC[C@@]4(C)C(CC[C@]5(C)C4CC=C4C6CC(C)(C)CC[C@]6(C(=O)O)CC[C@]45C)[C@]3(C)CO)OC[C@H](O)[C@@H]2O)[C@H](O)[C@H](O[C@@H]2O[C@H](CO)[C@@H](O)[C@H](O)[C@H]2O)[C@H]1O (some centres unmarked)	NF-κB activity, inhibitor, luciferase	TNF-stimulated	8.1 µM
Cc1ccc2nc(C(F)(F)F)c(C(=O)NCc3cccc(Cl)c3)n2c1	cell growth or viability, ATP luminescence	48 h	> 50 µM
CC1(C)OC2C(COP(=O)(O)O)OC(n3cnc4c(=O)[nH]c(NC(=O)c5ccccc5)nc43)C2O1 (centres unmarked)	cell growth or viability	–	> 100 µM
CCCCCCCCCCCCC(=O)O.O=C1CCCC2C3CCCN4CCCC(CN12)C34 (centres unmarked)	cell growth or viability, MTT	24 h	300 µM
CNC(=O)c1cc(Oc2ccc(NC(=O)c3cc(-c4cccc(OC(=O)CCC(=O)OC5OC6OC7(C)CCC8C(C)CCC(C5C)C68OO7)c4)ccn3)cc2)ccn1 (centres unmarked)	cell growth or viability, MTT	72 h	12.3 µM
O=C1CC2(C1)C(=O)[O][Pt]1([Cl])([O]C(=O)C(Cl)Cl)([NH][C@@H]3CCCC[C@H]3[NH]1)[O]C2=O	cell growth or viability, MTT	–	1.35 µM
CNC(=O)c1cc(Oc2ccc(NC(=O)c3ccc(-c4ccccc4OC(=O)CCC(=O)OC4OC5OC6(C)CCC7C(C)CCC(C4C)C57OO6)cn3)cc2)ccn1 (centres unmarked)	cell growth or viability, MTT	72 h	16.3 µM
CC(C)=CCC[C@@](C)(O)[C@H]1CC[C@]2(C)[C@@H]1CC[C@@H]1[C@@]3(C)CCC(=O)C(C)(C)[C@@H]3CC[C@]12C	cell growth or viability, SRB	–	25.6 µM
CCc1ccc([C@@H]2C[C@H](C(F)(F)F)n3ncc(C(=O)NCc4ccc(OC)cc4)c3N2)cc1	cell growth or viability, ATP luminescence	48 h	38 µM
O=C(NCc1ccco1)C1CCN(S(=O)(=O)c2ccc(Cl)cc2)CC1	cell growth or viability, MTT	–	0.84 µM
O=P(O)(O)Oc1ccc(Oc2ccc(S(=O)(=O)CC3CS3)cc2)cc1 (racemic)	cell growth or viability, XTT	–	140 µM
c1cc2c(s1)CCOC21CCN(Cc2ccc3c(c2)OCCO3)CC1	cell growth or viability, ATP luminescence	48 h	> 50 µM
CNC(=O)c1cc(Oc2ccc(NC(=O)c3cc(-c4ccc(COC(=O)CCC(=O)OC5OC6OC7(C)CCC8C(C)CCC(C5C)C68OO7)cc4)ccn3)cc2)ccn1 (centres unmarked)	cell growth or viability, MTT	72 h	19.2 µM
COc1ccc2nc(C)cc(OCC(=O)Nc3ccccc3OC)c2c1	cell growth or viability, ATP luminescence	48 h	> 50 µM
Cc1ccc2nc(C)c(C(=O)NCc3ccc(C(F)(F)F)cc3)n2c1	cell growth or viability	–	> 25 µM
CNc1nc(SC)nc2ccccc12	cell growth or viability, ATP luminescence	48 h	> 50 µM
CCOc1cccc2c1[O][Pt-2]1([Cl])[N+](=C2)Cc2cccc[n+]21 (centres unmarked)	cell viability, MTT	48 h	6.99 ± 1.74 µM
